Measurements pooled from the literature.
Lines come from different studies, so protocols differ. Numbers after ± are the reported error.
Cell line: HeLa

SMILES | test | setting | how to read | endpoint | result
CC(=O)Nc1ccc(-c2csc(NCc3ccccc3)n2)cc1 | resazurin | concentration not given |  | cytotoxicity | not toxic
CC[C@H](C)[C@@H]1NC(=O)[C@H](C)NC(=O)[C@H](C)NC(=O)[C@H]([C@@H](C)O)NC(=O)[C@H](C)NC(=O)[C@@H]2CSSC[C@@H]3NC(=O)[C@H](C(C)C)NC(=O)[C@H](CCCCN)NC(=O)[C@H](CO)NC(=O)[C@H](CCCCN)NC(=O)[C@@H]4CSSC[C@H](NC(=O)[C@H](CO)NC(=O)[C@H](CCC(=O)O)NC(=O)CNC(=O)[C@H](CSSC[C@H](NC(=O)CNC1=O)C(=O)N[C@@H](CO)C(=O)N4)NC(=O)[C@@H]1CCCN1C(=O)[C@H](Cc1ccccc1)NC(=O)CNC(=O)[C@H](CC(N)=O)NC(=O)[C@H](CCCCN)NC(=O)[C@H](Cc1ccc(O)cc1)NC3=O)C(=O)N[C@@H](C(C)C)C(=O)N[C@@H](Cc1ccc(O)cc1)C(=O)N[C@@H](CC(C)C)C(=O)N1CCC[C@H]1C(=O)N2 | resazurin | 24 h |  | CC50 | 4.1 ± 0.39 µM
CCCCCCCCCCCCCC(=O)N[C@@H](CCCNC(=N)N)C(=O)N[C@@H](CCCNC(=N)N)C(=O)N[C@@H](CCCNC(=N)N)C(N)=O | MTS | 100 µM |  | cytotoxicity | toxic
N=C(N)NCCC[C@@H]1NC(=O)[C@H](Cc2csc3ccccc23)NC(=O)[C@@H](Cc2ccccc2)NC(=O)[C@H](Cc2ccccc2)NC(=O)[C@H](CCC(=O)NCCOCCOCC(=O)N[C@@H](CCCCNC(=O)c2ccc3c(c2)C(=O)OC32c3ccc4cc(O)ccc4c3Oc3c2ccc2cc(O)ccc32)C(N)=O)NC(=O)[C@@H](CCCNC(=N)N)NC(=O)[C@H](CCCNC(=N)N)NC(=O)[C@@H](CCCNC(=N)N)NC1=O | cell penetration, flow cytometry | 5 µM, 2 h, 37 °C, 1% FBS | baseline: CPP12 | cytosolic entry | 85 ± 7%
NCCCC[C@H](NC(=O)[C@H](CCCCNC(=O)CCC(=O)Nc1nnc(S(N)(=O)=O)s1)NC(=O)[C@H](Cc1ccccc1)NC(=O)[C@H](Cc1ccccc1)NC(=O)CCCc1ccc2ccc3cccc4ccc1c2c34)C(N)=O | MTT | concentration not given, 24 h, normoxia |  | cytotoxicity | not toxic
CC[C@H](C)[C@@H]1NC(=O)[C@H](C)NC(=O)[C@H](C)NC(=O)[C@H]([C@@H](C)O)NC(=O)[C@H](Cc2ccccc2)NC(=O)[C@@H]2CSSC[C@@H]3NC(=O)[C@H](C(C)C)NC(=O)[C@H](CCCCN)NC(=O)[C@H](CO)NC(=O)[C@H](CCCCN)NC(=O)[C@@H]4CSSC[C@H](NC(=O)[C@H](CO)NC(=O)[C@H](CCC(=O)O)NC(=O)CNC(=O)[C@H](CSSC[C@H](NC(=O)CNC1=O)C(=O)N[C@@H](CO)C(=O)N4)NC(=O)[C@@H]1CCCN1C(=O)[C@H](Cc1ccccc1)NC(=O)CNC(=O)[C@H](C)NC(=O)[C@H](CCCCN)NC(=O)[C@H](Cc1ccc(O)cc1)NC3=O)C(=O)N[C@@H](C(C)C)C(=O)N[C@@H](Cc1ccc(O)cc1)C(=O)N[C@@H](CC(C)C)C(=O)N1CCC[C@H]1C(=O)N2 | resazurin | 24 h |  | CC50 | 0.67 ± 0.03 µM
N=C(N)NCCC[C@H](NC(=O)[C@@H]1CCCN1C(=O)[C@H](CC(N)=O)NC(=O)[C@H](Cc1ccccc1)NC(=O)[C@H](Cc1c[nH]cn1)NC(=O)[C@H](Cc1ccccc1)NC(=O)[C@H](Cc1ccccc1)NC(=O)Cc1ccc2ccccc2c1)C(=O)O |  | 200 µM, 1 h, 37 °C |  | intracellular concentration | 297 µM
CC[C@H](C)[C@@H]([C@@H](CC(=O)N1CCC[C@H]1[C@H](OC)[C@@H](C)C(=O)N[C@@H](Cc1ccccc1)C(=O)O)OC)N(C)C(=O)[C@@H](NC(=O)[C@H](C(C)C)N(C)C(=O)CCSSC[C@H](NC(=O)[C@@H](NC(=O)CNC(=O)[C@H](CCC(=O)O)NC(=O)[C@H](CC(=O)O)NC(=O)[C@H](C)NC(=O)[C@H](CC(=O)O)NC(=O)[C@@H](NC(=O)[C@H](CC(C)C)NC(=O)[C@H](CC(C)C)NC(=O)[C@H](C)NC(=O)[C@H](CC(C)C)NC(=O)[C@H](CC(=O)O)NC(=O)[C@H](CC(C)C)NC(=O)[C@H](CC(C)C)NC(=O)[C@H](CC(C)C)NC(=O)[C@H](CC(C)C)NC(=O)[C@@H]1CCCN1C(=O)[C@@H](NC(=O)[C@@H](NC(=O)[C@H](Cc1ccccc1)NC(=O)[C@H](CC(C)C)NC(=O)[C@H](Cc1c[nH]c2ccccc12)NC(=O)[C@H](CC(=O)O)NC(=O)[C@H](C)NC(=O)[C@H](Cc1ccc(O)cc1)NC(=O)[C@H](CCCNC(=N)N)NC(=O)[C@H](C)NC(=O)[C@H](Cc1c[nH]c2ccccc12)NC(=O)[C@H](Cc1ccc(O)cc1)NC(=O)[C@@H](NC(=O)[C@@H]1CCCN1C(=O)[C@H](CC(N)=O)NC(=O)[C@H](CCC(N)=O)NC(=O)[C@H](CCC(=O)O)NC(=O)CNC(=O)CN)[C@@H](C)CC)[C@@H](C)O)[C@@H](C)O)C(C)C)[C@@H](C)O)C(=O)NCC(N)=O)C(C)C | MTT | 0.53 µM, pH 6.0, without Ca2+ |  | cytotoxicity | 23%
CC[C@H](C)[C@@H]1NC(=O)[C@H](C)NC(=O)[C@H](C)NC(=O)[C@H]([C@@H](C)O)NC(=O)[C@H](Cc2ccccc2)NC(=O)[C@@H]2CSSC[C@@H]3NC(=O)[C@H](C(C)C)NC(=O)[C@H](CCCCN)NC(=O)[C@H](CO)NC(=O)[C@H](CCCCN)NC(=O)[C@@H]4CSSC[C@H](NC(=O)[C@H](CO)NC(=O)[C@H](CCC(=O)O)NC(=O)CNC(=O)[C@H](CSSC[C@H](NC(=O)CNC1=O)C(=O)N[C@@H](CO)C(=O)N4)NC(=O)[C@@H]1CCCN1C(=O)[C@H](Cc1ccccc1)NC(=O)CNC(=O)[C@H](CC(N)=O)NC(=O)[C@H](CCCCN)NC(=O)[C@H](Cc1ccc(O)cc1)NC3=O)C(=O)N[C@@H](C(C)C)C(=O)N[C@@H](Cc1ccc(O)cc1)C(=O)N[C@@H](C)C(=O)N1CCC[C@H]1C(=O)N2 | resazurin | 24 h |  | CC50 | 8.64 ± 1.21 µM
CC(C)C[C@H](NC(=O)OCc1ccccc1)C(=O)N[C@@H](CC1CCNC1=O)C(O)S(=O)(=O)O (stereo partly drawn) |  | 6 days |  | CC50 | > 10 µM
CC=C(C)C(=O)OC1C(O)C2OC(COC(=O)CCC(=O)CCCCCCC(CCCCC)OC3OC(C)C(O)C(O)C3O2)C1OC(=O)C=Cc1ccccc1 (stereo not drawn) | cytotoxicity |  |  | IC50 | 133 nM
CC[C@H](C)[C@@H]1NC(=O)[C@H](C)NC(=O)[C@H](C)NC(=O)[C@H]([C@@H](C)O)NC(=O)[C@H](Cc2ccccc2)NC(=O)[C@@H]2CSSC[C@@H]3NC(=O)[C@H](C(C)C)NC(=O)[C@H](CCCCN)NC(=O)[C@H](CO)NC(=O)[C@H](C)NC(=O)[C@@H]4CSSC[C@H](NC(=O)[C@H](CO)NC(=O)[C@H](CCC(=O)O)NC(=O)CNC(=O)[C@H](CSSC[C@H](NC(=O)CNC1=O)C(=O)N[C@@H](CO)C(=O)N4)NC(=O)[C@@H]1CCCN1C(=O)[C@H](Cc1ccccc1)NC(=O)CNC(=O)[C@H](CC(N)=O)NC(=O)[C@H](CCCCN)NC(=O)[C@H](Cc1ccc(O)cc1)NC3=O)C(=O)N[C@@H](C(C)C)C(=O)N[C@@H](Cc1ccc(O)cc1)C(=O)N[C@@H](CC(C)C)C(=O)N1CCC[C@H]1C(=O)N2 | resazurin | 24 h |  | CC50 | 1.54 ± 0.08 µM
